Measurements gathered from unrelated publications.
Lines come from different studies, so protocols differ. ± gives the spread as reported.
Chain of UniProt P05067 (whole entry, unmodified, looked up): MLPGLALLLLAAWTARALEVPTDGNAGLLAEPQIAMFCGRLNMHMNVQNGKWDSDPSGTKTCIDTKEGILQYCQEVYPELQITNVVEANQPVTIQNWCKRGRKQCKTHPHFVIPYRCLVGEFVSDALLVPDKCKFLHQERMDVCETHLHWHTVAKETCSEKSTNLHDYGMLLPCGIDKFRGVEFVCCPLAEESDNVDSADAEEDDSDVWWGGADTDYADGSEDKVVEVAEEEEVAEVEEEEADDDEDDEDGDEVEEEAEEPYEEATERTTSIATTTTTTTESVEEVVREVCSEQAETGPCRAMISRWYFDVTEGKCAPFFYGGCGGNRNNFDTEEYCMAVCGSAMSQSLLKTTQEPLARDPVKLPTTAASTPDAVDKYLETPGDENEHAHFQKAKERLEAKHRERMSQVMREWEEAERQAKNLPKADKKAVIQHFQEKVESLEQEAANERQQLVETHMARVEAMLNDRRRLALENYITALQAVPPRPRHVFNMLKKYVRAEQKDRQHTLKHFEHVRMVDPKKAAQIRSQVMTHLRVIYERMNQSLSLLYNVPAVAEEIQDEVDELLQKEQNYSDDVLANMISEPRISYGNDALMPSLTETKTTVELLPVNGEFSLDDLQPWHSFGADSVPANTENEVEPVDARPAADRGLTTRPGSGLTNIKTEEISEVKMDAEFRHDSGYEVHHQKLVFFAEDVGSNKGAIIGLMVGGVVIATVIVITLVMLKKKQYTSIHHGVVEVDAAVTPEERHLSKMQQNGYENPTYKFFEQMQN
Chain of UniProt P63104 (whole entry, looked up): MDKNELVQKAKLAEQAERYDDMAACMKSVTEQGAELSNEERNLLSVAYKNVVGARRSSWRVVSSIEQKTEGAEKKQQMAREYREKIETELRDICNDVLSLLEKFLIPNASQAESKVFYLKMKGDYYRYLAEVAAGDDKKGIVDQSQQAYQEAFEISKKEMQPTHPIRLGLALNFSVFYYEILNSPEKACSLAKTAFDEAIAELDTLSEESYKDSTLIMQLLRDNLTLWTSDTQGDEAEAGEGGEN
Chain of UniProt Q767F1 (whole entry, unmodified, looked up): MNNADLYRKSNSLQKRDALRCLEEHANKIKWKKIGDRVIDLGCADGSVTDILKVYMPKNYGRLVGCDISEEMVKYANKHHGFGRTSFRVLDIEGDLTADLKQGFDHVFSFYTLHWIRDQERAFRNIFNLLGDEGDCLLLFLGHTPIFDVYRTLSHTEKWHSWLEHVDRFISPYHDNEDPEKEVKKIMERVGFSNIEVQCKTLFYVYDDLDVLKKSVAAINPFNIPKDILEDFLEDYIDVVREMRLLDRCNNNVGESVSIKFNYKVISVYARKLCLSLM
Chain of UniProt Q9NZC7 (whole entry, looked up): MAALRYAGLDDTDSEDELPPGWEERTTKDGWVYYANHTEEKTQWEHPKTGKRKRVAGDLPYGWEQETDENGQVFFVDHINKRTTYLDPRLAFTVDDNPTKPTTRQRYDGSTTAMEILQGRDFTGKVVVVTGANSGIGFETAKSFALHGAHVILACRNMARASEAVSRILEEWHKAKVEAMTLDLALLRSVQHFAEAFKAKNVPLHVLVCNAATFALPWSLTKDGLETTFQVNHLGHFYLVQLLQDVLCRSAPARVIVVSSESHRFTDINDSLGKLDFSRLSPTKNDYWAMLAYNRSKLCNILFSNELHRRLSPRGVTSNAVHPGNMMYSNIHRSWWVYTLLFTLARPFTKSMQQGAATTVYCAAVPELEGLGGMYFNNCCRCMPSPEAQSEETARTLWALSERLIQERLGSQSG
Chain of UniProt P22455 (whole entry, looked up): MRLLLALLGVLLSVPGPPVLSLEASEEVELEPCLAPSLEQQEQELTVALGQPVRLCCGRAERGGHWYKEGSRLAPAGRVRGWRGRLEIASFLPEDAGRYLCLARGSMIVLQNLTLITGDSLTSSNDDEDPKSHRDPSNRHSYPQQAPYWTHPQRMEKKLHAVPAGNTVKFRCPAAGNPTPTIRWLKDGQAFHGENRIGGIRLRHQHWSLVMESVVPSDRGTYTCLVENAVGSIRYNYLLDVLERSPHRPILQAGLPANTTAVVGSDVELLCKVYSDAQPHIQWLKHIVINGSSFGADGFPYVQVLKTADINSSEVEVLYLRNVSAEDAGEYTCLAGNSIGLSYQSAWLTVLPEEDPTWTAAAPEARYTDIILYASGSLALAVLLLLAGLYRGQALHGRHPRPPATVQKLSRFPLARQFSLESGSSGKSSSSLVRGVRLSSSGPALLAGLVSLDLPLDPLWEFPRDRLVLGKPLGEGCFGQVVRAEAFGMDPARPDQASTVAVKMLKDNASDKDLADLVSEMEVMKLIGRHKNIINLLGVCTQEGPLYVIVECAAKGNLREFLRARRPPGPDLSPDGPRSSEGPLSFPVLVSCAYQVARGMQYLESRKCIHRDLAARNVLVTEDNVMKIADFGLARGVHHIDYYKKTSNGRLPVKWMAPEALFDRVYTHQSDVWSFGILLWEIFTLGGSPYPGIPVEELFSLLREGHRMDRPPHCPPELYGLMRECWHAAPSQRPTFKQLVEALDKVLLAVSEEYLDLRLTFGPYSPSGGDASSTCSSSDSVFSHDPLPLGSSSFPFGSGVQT
Chain of UniProt O66465 (whole entry, unmodified, looked up): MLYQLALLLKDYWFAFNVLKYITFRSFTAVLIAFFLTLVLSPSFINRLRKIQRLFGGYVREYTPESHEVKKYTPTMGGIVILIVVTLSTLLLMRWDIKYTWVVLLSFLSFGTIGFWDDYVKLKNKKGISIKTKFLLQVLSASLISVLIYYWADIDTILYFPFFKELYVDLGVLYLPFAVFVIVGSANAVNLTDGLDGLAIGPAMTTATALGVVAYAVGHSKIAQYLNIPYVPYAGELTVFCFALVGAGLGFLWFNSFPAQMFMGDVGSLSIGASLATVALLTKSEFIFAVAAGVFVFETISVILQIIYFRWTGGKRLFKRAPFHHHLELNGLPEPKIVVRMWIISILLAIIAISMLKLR
Chain of UniProt Q9NQG5 (whole entry, looked up): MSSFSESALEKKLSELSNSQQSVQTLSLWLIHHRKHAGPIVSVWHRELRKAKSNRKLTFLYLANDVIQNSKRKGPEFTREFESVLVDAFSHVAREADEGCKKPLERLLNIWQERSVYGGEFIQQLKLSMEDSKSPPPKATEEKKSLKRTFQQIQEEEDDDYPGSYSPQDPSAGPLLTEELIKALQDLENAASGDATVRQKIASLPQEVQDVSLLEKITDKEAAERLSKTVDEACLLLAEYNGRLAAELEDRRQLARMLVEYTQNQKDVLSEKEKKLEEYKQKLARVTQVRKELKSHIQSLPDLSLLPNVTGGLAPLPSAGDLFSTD
Chain of UniProt Q9FIP9 (whole entry, looked up): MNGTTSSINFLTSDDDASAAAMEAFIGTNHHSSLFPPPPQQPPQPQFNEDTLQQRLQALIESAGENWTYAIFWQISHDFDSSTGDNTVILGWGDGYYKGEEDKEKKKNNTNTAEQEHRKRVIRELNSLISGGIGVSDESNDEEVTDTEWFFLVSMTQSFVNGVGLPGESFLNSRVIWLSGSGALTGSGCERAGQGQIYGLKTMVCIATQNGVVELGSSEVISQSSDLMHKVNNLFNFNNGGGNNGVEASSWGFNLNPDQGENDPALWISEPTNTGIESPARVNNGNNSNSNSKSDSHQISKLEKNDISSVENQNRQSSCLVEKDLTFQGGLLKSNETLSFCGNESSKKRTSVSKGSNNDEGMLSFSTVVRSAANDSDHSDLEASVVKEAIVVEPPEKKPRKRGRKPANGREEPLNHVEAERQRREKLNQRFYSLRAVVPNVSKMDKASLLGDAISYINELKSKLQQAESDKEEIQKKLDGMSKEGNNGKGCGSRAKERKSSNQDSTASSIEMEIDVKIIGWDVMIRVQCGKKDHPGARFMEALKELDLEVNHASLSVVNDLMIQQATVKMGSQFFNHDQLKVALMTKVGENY
Chain of UniProt P26718 (whole entry, looked up): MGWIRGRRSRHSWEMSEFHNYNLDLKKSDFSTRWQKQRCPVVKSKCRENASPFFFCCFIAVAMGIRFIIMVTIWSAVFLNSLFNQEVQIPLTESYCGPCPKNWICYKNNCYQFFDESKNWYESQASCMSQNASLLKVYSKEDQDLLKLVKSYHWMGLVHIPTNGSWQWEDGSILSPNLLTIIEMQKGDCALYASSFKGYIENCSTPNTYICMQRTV

CC(C)C[C@H](NC(=O)[C@H](CCCNC(=N)N)NC(=O)[C@H](CCC(=O)O)NC(=O)[C@H](CCCCN)NC(=O)[C@H](CCCNC(=N)N)NC(=O)[C@H](CCCCN)NC(=O)[C@H](CCC(=O)O)NC(=O)[C@H](CC(C)C)NC(=O)[C@H](Cc1ccccc1)NC(=O)[C@H](CCCNC(=N)N)NC(=O)[C@H](C)NC(=O)[C@H](CC(C)C)NC(=O)[C@H](CO)NC(=O)[C@]1(C)CCCC=CCCC[C@](C)(NC(=O)[C@@H]2CCCN2C(=O)[C@@H](NC(=O)[C@H](CO)NC(=O)c2ccc3c(c2)C(=O)OC32c3ccc(N(C)C)cc3Oc3cc(N(C)C)ccc32)C(C)C)C(=O)N[C@@H](C)C(=O)N[C@@H](CCCNC(=N)N)C(=O)N[C@@H](CCCCN)C(=O)N1)C(=O)O
Kd (Transcription factor MYC3 (MYC3, Arabidopsis thaliana, UniProt Q9FIP9); binding, fluorescence anisotropy; pH 8.0, apparent Kd, together with: 100 nM TMR-labelled JAZ peptide): 2400 ± 500 nM

CC[C@H](C)[C@H](NC(=O)[C@H](CCCNC(=N)N)NC(=O)[C@H](CCCCN)NC(=O)[C@@H](NC(=O)[C@H](C)NC(=O)[C@H](CCCNC(=N)N)NC(=O)[C@H](CCC(N)=O)NC(=O)[C@H](CO)NC(=O)[C@H](CCCCN)NC(=O)[C@H](CC(N)=O)NC(=O)[C@@H](N)CCCNC(=N)N)[C@@H](C)O)C(=O)N[C@@H](CO)C(=O)N[C@@H](Cc1c[nH]cn1)C(=O)N[C@@H](CCSC)C(=O)N1CCC[C@H]1C(=O)N[C@@H](CO)C(=O)N[C@@H](CCCNC(=N)N)C(=O)N1CCC[C@H]1C(=O)N[C@@H](CCC(=O)O)C(=O)N[C@@H](CC(C)C)C(=O)N[C@@H](CO)C(=O)N[C@@H](C)C(=O)N[C@H](C(=O)N[C@@H](C)C(=O)N[C@H](C(=O)N[C@@H](CC(=O)O)C(=O)N[C@@H](CC(C)C)C(=O)N[C@@H](CCCNC(=N)N)C(=O)N[C@@H](CCCCN)C(=O)N[C@@H](CC(=O)O)C(=O)N[C@@H](CCCCN)C(=O)N[C@@H](C)C(=O)N[C@@H](CCCCN)C(=O)N[C@@H](COP(=O)(O)O)C(=O)N[C@@H](CSC/C=C(\C)CC/C=C(\C)CCC=C(C)C)C(=O)OC)[C@@H](C)O)C(C)C
Kd (YWHAZ (Homo sapiens, UniProt P63104); cell-free assay, FP; pH 7.5): 320 nM

COc1ccc(/C=C/C(=O)c2ccc(OCCSc3nnc(-c4ccccc4)c(-c4ccccc4)n3)cc2)c(OC)c1
Kd (CP (Tobacco mosaic virus, UniProt P69687); binding, MST): 81700 nM

CC[C@H](C)[C@H](NC(=O)[C@H](CCCCN)NC(=O)[C@H](Cc1ccccc1)NC(=O)[C@H](CCCCNC(=O)[C@H](CC(C)C)NC(=O)[C@@H]1CCCN1C(=O)[C@H](CCCCN)NC(=O)c1ccc(O[C@@H]2O[C@H](CO)[C@H](O)[C@H](O)[C@H]2O)cc1)NC(=O)[C@H](CC(C)C)NC(=O)[C@@H]1CCCN1C(=O)[C@H](CCCCN)NC(=O)c1ccc(O[C@@H]2O[C@H](CO)[C@H](O)[C@H](O)[C@H]2O)cc1)C(N)=O
Kd (lecA (Pseudomonas aeruginosa, UniProt Q05097); binding, ITC; pH 7.5): 83 nM

CC(C)=CCC/C(C)=C/CC/C(C)=C/C(=O)O
Kd (Juvenile hormone acid O-methyltransferase (JHAMT, Bombyx mori, UniProt Q767F1, H114A); binding, fluorescence binding; pH 8.0, 25 °C): 390 ± 60 nM

CC(C)CC(NC(=O)C(NC(=O)NC(C(=O)O)C(C)C)C1CCNC(=N)N1)C(=O)NCCCNC(C(=O)O)C(OC1OC(CN)C(O)C1O)C1OC(n2ccc(=O)[nH]c2=O)C(O)C1O (centres unmarked)
Kd (mraY (Aquifex aeolicus, UniProt O66465, K70A); binding, ITC): 63.9 nM

CC[C@H](C)[C@H](NC(=O)[C@@H](NC(=O)[C@@H](NC(=O)[C@@H](NC(=O)[C@H](Cc1c[nH]c2ccccc12)NC(=O)[C@H](CCC(=O)O)NC(=O)[C@H](CO)NC(=S)Nc1ccc2c(c1)C(=O)OC21c2ccc(O)cc2Oc2cc(O)ccc21)C(C)C)[C@@H](C)CC)C(C)C)C(=O)N[C@@H](C)C(=O)N[C@@H](Cc1ccccc1)C(=O)N[C@@H](CC(C)C)C(=O)N[C@H](C(=O)N[C@@H](CC(N)=O)C(=O)N[C@@H](CC(C)C)C(=O)O)[C@@H](C)O
Kd (Rgg transcriptional regulator (Streptococcus pneumoniae, UniProt A0A0E7KI02); binder, fluorescence polarization; 20 min, pH 7.4, 20 °C, fluorescein-labelled peptide): 1660 nM

C[C@@H](O)[C@H](NC(=O)[C@@H]1CCCN1C(=O)[C@H](CO)NC(=O)[C@H](Cc1ccc(O)cc1)NC(=O)[C@H](COP(=O)(O)O)NC(=O)[C@@H]1CCCN1C(=O)[C@H](CO)NC(=O)[C@@H](NC(=O)[C@@H]1CCCN1C(=O)[C@H](CO)NC(=O)[C@H](Cc1ccc(O)cc1)NC(=O)[C@H](CO)NC(=O)[C@@H]1CCCN1C(=O)[C@@H](N)CO)[C@@H](C)O)C(=O)N[C@@H](CO)C(=O)N1CCC[C@H]1C(=O)N[C@@H](CO)C(=O)N[C@@H](Cc1ccc(O)cc1)C(=O)O
Kd (Regulation of nuclear pre-mRNA domain-containing protein 1B, CID domain (RPRD1B, Homo sapiens, UniProt Q9NQG5); binding, fluorescence polarization; pH 8.0, room temperature): 32500 ± 3000 nM

O=C(/C=C/c1ccccc1F)c1ccc(OS(=O)(=O)c2cccs2)cc1
Kd (CP, capsid (Tobacco mosaic virus, UniProt P69687); binding, MST): 270 nM

CC[C@H](C)[C@H](NC(=O)[C@@H]1CSCc2cccc(c2)CSC[C@H](NC(=O)[C@@H](NC(=O)[C@H](Cc2ccc(O)cc2)NC(=O)[C@H](CO)NC(=O)[C@H](Cc2ccccc2)NC(=O)[C@H](CCSC)NC(C)=O)C(C)C)C(=O)N[C@@H]([C@@H](C)O)C(=O)N[C@@H](CC(C)C)C(=O)N[C@@H](CCCCN)C(=O)N[C@@H](CO)C(=O)N1)C(=O)N[C@@H](C)C(=O)N[C@@H](CCSC)C(=O)N[C@@H](Cc1c[nH]cn1)C(=O)NCC(=O)N[C@@H](CO)C(=O)NCC(=O)N[C@@H](CO)C(=O)NCC(=O)N[C@@H](CO)C(=O)N[C@@H](CC(=O)O)C(=O)N[C@@H](Cc1ccc(O)cc1)C(=O)N[C@@H](CCCCN)C(=O)N[C@@H](CC(=O)O)C(=O)N[C@@H](CC(=O)O)C(=O)N[C@@H](CC(=O)O)C(=O)N[C@@H](CC(=O)O)C(=O)N[C@@H](CCCCN)C(N)=O
Kd (FGFR4 (Homo sapiens, UniProt P22455); binding, BLI): > 10000 nM

CC(C)C[C@H](NC(=O)[C@@H]1CCCN1C(=O)[C@H](CC(=O)O)NC(=O)[C@H](CO)NC(=O)[C@H](C)NC(=O)c1cc(-c2ccccc2)nc2ccccc12)C(=O)NCC(=O)N[C@H](C(=O)N[C@H](C(=O)N[C@@H](CCCNC(=N)N)C(=O)NCC(=O)N[C@@H](CCCNC(=N)N)C(=O)N[C@@H](C)C(=O)N[C@@H](CCCNC(=N)N)C(=O)N[C@H](CCCNC(=O)c1ccc2c(c1)C(=O)OC21c2ccc(N(C)C)cc2Oc2cc(N(C)C)ccc21)C(N)=O)C(C)C)C(C)C
Kd (Klotho (Homo sapiens, UniProt Q9UEF7); binding, BLI competition): 1.6 ± 0.4 nM

Nc1ncnc2c1ncn2[C@@H]1O[C@H](COP(=O)(O)OP(=O)(O)OP(=O)(O)O)[C@@H](O)[C@H]1O
Kd (dnaA (Escherichia coli, UniProt P03004, A184V); binding, radiometric): 2970 nM

CC(C)C[C@H](NC(=O)[C@@H](N)Cc1ccccc1)C(=O)O
Kd (Amyloid-beta precursor protein, amyloid-beta 1-40 V40A (APP, Homo sapiens, UniProt P05067, V711A); concentration not given): 17200 ± 8500 nM

CC(=O)NC1C(OC2C(O)C(O)OC(CO)C2O)OC(CO)C(O)C1OC1OC(CO)C(O)C(OC2OC(CO)C(O)C(O)C2O)C1OC1OC(C)C(O)C(O)C1O (centres unmarked)
Kd (sly (Streptococcus suis, UniProt Q55996); binding): 8400 nM

CC[C@H](C)[C@H](NC(=O)[C@H](CCC(=O)O)NC(=O)[C@H](CO)NC(=O)[C@H](CCCNC(=N)N)NC(=O)[C@H](CC(N)=O)NC(=O)[C@H](CO)NC(=O)[C@H](CC(=O)O)NC(=O)[C@@H](NC(=O)[C@H](CCCNC(=N)N)NC(=O)[C@H](C)NC(=O)[C@H](CCCNC(=N)N)NC(=O)[C@H](CO)NC(=O)[C@@H](NC(=O)[C@H](Cc1ccc(O)cc1)NC(=O)[C@@H](NC(=O)[C@@H]1CCCN1C(=O)[C@@H]1CCCN1C(=O)[C@@H]1CCCN1C(=O)[C@@H](NC(=O)[C@H](CC(N)=O)NC(=O)[C@H](Cc1ccccc1)NC(=O)[C@H](C)N)[C@@H](C)CC)[C@@H](C)CC)[C@@H](C)O)[C@@H](C)CC)C(=O)NCC(=O)N[C@@H](Cc1c[nH]cn1)C(=O)N[C@@H](CO)C(=O)N1CCC[C@H]1C(=O)N1CCC[C@H]1C(=O)N1CCC[C@H]1C(=O)N[C@@H](C)C(=O)N[C@@H](Cc1ccc(O)cc1)C(=O)N[C@H](C(=O)N1CCC[C@H]1C(=O)N[C@@H](CCSC)C(=O)N[C@@H](CO)C(=O)O)[C@@H](C)O
Kd (WW domain-containing oxidoreductase, WW1-WW2 tandem domains (WWOX, Homo sapiens, UniProt Q9NZC7); ITC; tandem WW1-WW2 domain; pH 7.8, 20 °C, some values lower limits only): 14000 ± 2600 nM

CCCCCCCC(=O)N[C@@H](CCCCNS(=O)(=O)c1cccc2c(N(C)C)cccc12)C(=O)N[C@H](C(=O)N[C@@H](CCN)C(=O)N[C@H]1CCNC(=O)[C@H]([C@@H](C)O)NC(=O)[C@H](CCN)NC(=O)[C@H](CCN)NC(=O)[C@H](CC(C)C)NC(=O)[C@@H](Cc2ccccc2)NC(=O)[C@H](CCN)NC1=O)[C@@H](C)O
Kd (Escherichia coli lipopolysaccharide; isothermal titration calorimetry; pH 7.0, 37 °C, first binding site set): 192000 ± 15000 nM

CN1C(=O)[C@H](Cc2ccccc2)N(C)C(=O)[C@@H]2[C@H]1CCN2Cc1cc(Cl)cc(Cl)c1
Kd (NKG2-D type II integral membrane protein (KLRK1, Homo sapiens, UniProt P26718); binding, surface plasmon resonance; 25 °C, 1:1 binding model): 48200 nM

For quick reference, copied from above:
CC[C@H](C)[C@H](NC(=O)[C@H](CCCNC(=N)N)NC(=O)[C@H](CCCCN)NC(=O)[C@@H](NC(=O)[C@H](C)NC(=O)[C@H](CCCNC(=N)N)NC(=O)[C@H](CCC(N)=O)NC(=O)[C@H](CO)NC(=O)[C@H](CCCCN)NC(=O)[C@H](CC(N)=O)NC(=O)[C@@H](N)CCCNC(=N)N)[C@@H](C)O)C(=O)N[C@@H](CO)C(=O)N[C@@H](Cc1c[nH]cn1)C(=O)N[C@@H](CCSC)C(=O)N1CCC[C@H]1C(=O)N[C@@H](CO)C(=O)N[C@@H](CCCNC(=N)N)C(=O)N1CCC[C@H]1C(=O)N[C@@H](CCC(=O)O)C(=O)N[C@@H](CC(C)C)C(=O)N[C@@H](CO)C(=O)N[C@@H](C)C(=O)N[C@H](C(=O)N[C@@H](C)C(=O)N[C@H](C(=O)N[C@@H](CC(=O)O)C(=O)N[C@@H](CC(C)C)C(=O)N[C@@H](CCCNC(=N)N)C(=O)N[C@@H](CCCCN)C(=O)N[C@@H](CC(=O)O)C(=O)N[C@@H](CCCCN)C(=O)N[C@@H](C)C(=O)N[C@@H](CCCCN)C(=O)N[C@@H](COP(=O)(O)O)C(=O)N[C@@H](CSC/C=C(\C)CC/C=C(\C)CCC=C(C)C)C(=O)OC)[C@@H](C)O)C(C)C
Kd (YWHAZ (Homo sapiens, UniProt P63104); cell-free assay, FP; pH 7.5): 320 nM

CC[C@H](C)[C@H](NC(=O)[C@H](CCC(=O)O)NC(=O)[C@H](CO)NC(=O)[C@H](CCCNC(=N)N)NC(=O)[C@H](CC(N)=O)NC(=O)[C@H](CO)NC(=O)[C@H](CC(=O)O)NC(=O)[C@@H](NC(=O)[C@H](CCCNC(=N)N)NC(=O)[C@H](C)NC(=O)[C@H](CCCNC(=N)N)NC(=O)[C@H](CO)NC(=O)[C@@H](NC(=O)[C@H](Cc1ccc(O)cc1)NC(=O)[C@@H](NC(=O)[C@@H]1CCCN1C(=O)[C@@H]1CCCN1C(=O)[C@@H]1CCCN1C(=O)[C@@H](NC(=O)[C@H](CC(N)=O)NC(=O)[C@H](Cc1ccccc1)NC(=O)[C@H](C)N)[C@@H](C)CC)[C@@H](C)CC)[C@@H](C)O)[C@@H](C)CC)C(=O)NCC(=O)N[C@@H](Cc1c[nH]cn1)C(=O)N[C@@H](CO)C(=O)N1CCC[C@H]1C(=O)N1CCC[C@H]1C(=O)N1CCC[C@H]1C(=O)N[C@@H](C)C(=O)N[C@@H](Cc1ccc(O)cc1)C(=O)N[C@H](C(=O)N1CCC[C@H]1C(=O)N[C@@H](CCSC)C(=O)N[C@@H](CO)C(=O)O)[C@@H](C)O
Kd (WW domain-containing oxidoreductase, WW1-WW2 tandem domains (WWOX, Homo sapiens, UniProt Q9NZC7); ITC; tandem WW1-WW2 domain; pH 7.8, 20 °C, some values lower limits only): 14000 ± 2600 nM
